Earlier results that unrelated publications cite.
Compare with care: the assays were run in different laboratories. Numbers after ± are the reported error.
ribH: 6,7-dimethyl-8-ribityllumazine synthase (ribH, Mycobacterium tuberculosis, UniProt P9WHE9)
Chain of UniProt P9WHE9 (whole entry, looked up): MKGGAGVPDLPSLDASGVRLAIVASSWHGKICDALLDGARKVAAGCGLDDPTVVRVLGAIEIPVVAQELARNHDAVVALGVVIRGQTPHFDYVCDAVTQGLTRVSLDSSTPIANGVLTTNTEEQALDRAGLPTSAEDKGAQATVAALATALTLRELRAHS
Matrix protein 2: Matrix protein 2 (Influenza A virus, UniProt P0DOF5)
Chain of UniProt P0DOF5 (whole entry, looked up): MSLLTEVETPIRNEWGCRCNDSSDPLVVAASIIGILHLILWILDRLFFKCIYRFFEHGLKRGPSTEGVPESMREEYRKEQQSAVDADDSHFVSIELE
Chain of UniProt P42866 (whole entry, looked up): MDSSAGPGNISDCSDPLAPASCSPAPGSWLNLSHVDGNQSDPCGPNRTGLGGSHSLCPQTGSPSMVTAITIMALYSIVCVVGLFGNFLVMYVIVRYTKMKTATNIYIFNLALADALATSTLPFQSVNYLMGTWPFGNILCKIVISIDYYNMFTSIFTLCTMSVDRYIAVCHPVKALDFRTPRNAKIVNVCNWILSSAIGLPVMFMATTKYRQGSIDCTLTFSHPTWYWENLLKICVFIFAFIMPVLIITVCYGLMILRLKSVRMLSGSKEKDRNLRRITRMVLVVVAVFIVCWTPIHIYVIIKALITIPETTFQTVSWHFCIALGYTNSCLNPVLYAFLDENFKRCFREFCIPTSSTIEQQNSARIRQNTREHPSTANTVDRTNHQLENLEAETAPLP
Chain of UniProt P35372 (whole entry, looked up): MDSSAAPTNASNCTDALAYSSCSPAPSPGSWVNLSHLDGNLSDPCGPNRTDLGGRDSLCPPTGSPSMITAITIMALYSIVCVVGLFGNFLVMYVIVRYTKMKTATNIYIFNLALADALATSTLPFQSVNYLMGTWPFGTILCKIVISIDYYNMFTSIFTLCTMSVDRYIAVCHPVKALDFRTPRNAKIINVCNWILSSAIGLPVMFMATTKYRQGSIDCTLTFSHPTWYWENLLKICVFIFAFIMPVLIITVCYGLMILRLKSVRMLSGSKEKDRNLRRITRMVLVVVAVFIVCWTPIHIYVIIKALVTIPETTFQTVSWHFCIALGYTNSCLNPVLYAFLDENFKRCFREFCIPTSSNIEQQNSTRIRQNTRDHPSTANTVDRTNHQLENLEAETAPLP
Chain of UniProt P46098 (whole entry, looked up): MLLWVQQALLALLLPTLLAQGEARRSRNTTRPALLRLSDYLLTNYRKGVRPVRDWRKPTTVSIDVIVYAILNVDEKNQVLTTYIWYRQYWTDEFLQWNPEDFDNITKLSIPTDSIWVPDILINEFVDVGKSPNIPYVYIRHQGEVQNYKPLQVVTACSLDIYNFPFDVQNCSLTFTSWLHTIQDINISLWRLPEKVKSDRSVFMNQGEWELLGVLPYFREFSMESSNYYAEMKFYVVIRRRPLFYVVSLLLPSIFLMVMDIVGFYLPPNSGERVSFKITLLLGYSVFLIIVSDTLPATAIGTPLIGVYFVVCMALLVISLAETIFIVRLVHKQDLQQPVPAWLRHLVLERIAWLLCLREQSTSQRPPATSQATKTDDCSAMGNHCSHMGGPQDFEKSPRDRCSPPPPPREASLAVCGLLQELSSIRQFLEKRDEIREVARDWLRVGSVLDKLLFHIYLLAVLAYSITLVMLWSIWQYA
Chain of UniProt P41145 (whole entry, looked up): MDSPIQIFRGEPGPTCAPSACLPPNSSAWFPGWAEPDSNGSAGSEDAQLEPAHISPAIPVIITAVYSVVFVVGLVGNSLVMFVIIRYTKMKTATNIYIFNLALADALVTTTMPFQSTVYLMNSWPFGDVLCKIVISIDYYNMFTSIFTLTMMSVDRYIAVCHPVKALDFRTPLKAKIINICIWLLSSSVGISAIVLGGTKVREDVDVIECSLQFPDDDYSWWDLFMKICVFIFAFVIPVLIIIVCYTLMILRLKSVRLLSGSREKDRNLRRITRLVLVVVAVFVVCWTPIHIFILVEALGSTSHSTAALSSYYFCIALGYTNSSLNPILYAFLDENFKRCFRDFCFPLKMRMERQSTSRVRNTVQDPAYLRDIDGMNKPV
Chain of UniProt Q2M2I8 (whole entry, looked up): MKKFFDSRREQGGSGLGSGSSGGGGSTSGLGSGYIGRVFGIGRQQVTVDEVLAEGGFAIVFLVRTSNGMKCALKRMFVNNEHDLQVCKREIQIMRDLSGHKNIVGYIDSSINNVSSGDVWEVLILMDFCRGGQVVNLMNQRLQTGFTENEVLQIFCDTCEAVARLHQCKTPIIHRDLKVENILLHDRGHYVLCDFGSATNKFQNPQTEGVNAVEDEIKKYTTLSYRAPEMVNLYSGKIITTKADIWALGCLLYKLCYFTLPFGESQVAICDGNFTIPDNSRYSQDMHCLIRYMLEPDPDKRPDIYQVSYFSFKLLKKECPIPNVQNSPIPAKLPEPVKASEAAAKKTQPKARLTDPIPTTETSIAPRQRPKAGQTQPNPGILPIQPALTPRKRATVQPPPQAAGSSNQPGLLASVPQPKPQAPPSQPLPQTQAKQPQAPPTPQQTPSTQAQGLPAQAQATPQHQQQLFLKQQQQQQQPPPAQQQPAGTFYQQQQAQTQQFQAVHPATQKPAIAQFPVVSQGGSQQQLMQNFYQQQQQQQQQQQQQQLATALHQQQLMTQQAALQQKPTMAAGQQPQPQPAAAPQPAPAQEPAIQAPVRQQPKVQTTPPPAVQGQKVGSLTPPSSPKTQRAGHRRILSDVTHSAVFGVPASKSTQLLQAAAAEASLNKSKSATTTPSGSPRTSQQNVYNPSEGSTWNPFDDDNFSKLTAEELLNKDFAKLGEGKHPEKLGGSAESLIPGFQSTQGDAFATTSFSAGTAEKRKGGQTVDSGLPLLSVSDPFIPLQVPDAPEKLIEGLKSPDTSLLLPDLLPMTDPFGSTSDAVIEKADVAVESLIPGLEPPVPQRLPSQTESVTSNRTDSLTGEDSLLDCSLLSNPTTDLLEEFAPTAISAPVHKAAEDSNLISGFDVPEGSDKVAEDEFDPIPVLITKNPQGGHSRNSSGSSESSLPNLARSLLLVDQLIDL
Chain of UniProt P33535 (whole entry, looked up): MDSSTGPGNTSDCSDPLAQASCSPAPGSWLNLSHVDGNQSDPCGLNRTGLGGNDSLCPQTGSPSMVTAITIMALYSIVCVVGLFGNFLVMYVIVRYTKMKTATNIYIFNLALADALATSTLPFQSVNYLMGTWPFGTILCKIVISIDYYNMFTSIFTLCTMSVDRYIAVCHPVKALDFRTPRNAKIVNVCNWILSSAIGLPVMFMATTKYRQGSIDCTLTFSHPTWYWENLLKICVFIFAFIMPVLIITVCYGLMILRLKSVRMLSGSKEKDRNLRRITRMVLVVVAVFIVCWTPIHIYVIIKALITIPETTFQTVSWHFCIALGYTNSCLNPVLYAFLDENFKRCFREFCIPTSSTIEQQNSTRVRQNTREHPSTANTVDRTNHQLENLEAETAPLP

With `Nc1c(SC[C@H](O)[C@H](O)[C@H](O)CO)[nH]c(=O)[nH]c1=O` the kcat was 0.00317 ± 0.000167 s⁻¹ (ribH; enzyme kinetics; pH 7.0).
`COc1cc(O)c2c(c1)/C=C/C[C@H](O)[C@H](O)C(=O)/C=C\C[C@H](C)OC2=O` has a remaining binding of 13% (AP2-associated protein kinase 1 (AAK1, Homo sapiens, UniProt Q2M2I8); 10 µM; relative to: control).
For `CCOC(=O)C(=O)Nc1c(NC[C@H](O)[C@H](O)[C@H](O)CO)[nH]c(=O)[nH]c1=O`, the kcat was 0.00183 ± 0.000167 s⁻¹ (ribH; enzyme kinetics; pH 7.0).
With `NCC12C3CCC4C3C3C(CCC31)C42` the inhibition was 13 ± 1% (Matrix protein 2; inhibitor; 100 µM).
The selectivity ratio of `CC(C)[C@@H](CN1CC[C@@](C)(c2cccc(C(N)=O)c2)[C@@H](C)C1)NC(=O)[C@H]1Cc2ccc(O)cc2CN1` is reported as 4000 (Kappa-type opioid receptor (OPRK1, Homo sapiens, UniProt P41145); antagonist; relative to: Ke delta over Ke kappa).
`C1C2C1C1C3C4C5C6CC6C4C14CNCC54C23` (stereo not shown) gave an inhibition of 86 ± 1% (Matrix protein 2; inhibitor; 100 µM).
With `CSCC[C@H](NC(=O)[C@H](Cc1ccccc1)NC(=O)CNC(=O)[C@@H](C)NC(=O)[C@@H](N)Cc1ccc(O)cc1)C(=O)N1CCC[C@H]1C(=O)N[C@@H](CC(C)C)C(=O)N[C@@H](Cc1c[nH]c2ccccc12)C(=O)NCc1cc(C(F)(F)F)cc(C(F)(F)F)c1` the Emax was 51 ± 3% (Mu-type opioid receptor (Oprm1, Rattus norvegicus, UniProt P33535); agonist).
`CNCC12C3CCC4C3C3C(CCC31)C42` gave an inhibition of 15 ± 2% (Matrix protein 2; inhibitor; 100 µM).
`CC(C)C(=O)Nc1c(NC[C@H](O)[C@H](O)[C@H](O)CO)[nH]c(=O)[nH]c1=O` has a kcat of 0.00183 ± 0.000167 s⁻¹ (ribH; enzyme kinetics; pH 7.0).
`CN1CCN(c2nc3ccccc3nc2Cl)CC1` — result for “recovery time from inhibition”: about 25 min (5-hydroxytryptamine receptor 3A (HTR3A, Homo sapiens, UniProt P46098); 5-HT response; concentration not given).
For `O=C(N[C@@H]1CC[C@@]2(O)[C@H]3Cc4ccc(O)c5c4[C@@]2(CCN3CC2CC2)[C@H]1O5)c1cccc2ccoc12`, the Emax was 27.3% (Mu-type opioid receptor (Oprm1, Mus musculus, UniProt P42866); agonist; relative to: DAMGO).
`CC(=N)NC12C3CCC4C3C3C(CCC31)C42` gave an inhibition of 9.3 ± 2.4% (Matrix protein 2; inhibitor; 100 µM).
`CC[C@@H]1CN2CC[C@@]3(O)C(=Nc4cccc(OC)c43)[C@@H]2C[C@@H]1/C(=C\OC)C(=O)OC` gave an Emax of 47% (Mu-type opioid receptor (OPRM1, Homo sapiens, UniProt P35372); partial agonist).

Some of these lines once more:
`CN1CCN(c2nc3ccccc3nc2Cl)CC1` — result for “recovery time from inhibition”: about 25 min (5-hydroxytryptamine receptor 3A (HTR3A, Homo sapiens, UniProt P46098); 5-HT response; concentration not given).
